Measured values from different studies.
Compare with care: the assays were run in different laboratories. Several values in a cell are separate wells, animals, samples, runs or records. ± gives the spread as reported.

O=c1[nH]nc(OCCCc2ccc(Cl)cc2)c(NCc2cccnc2)c1Br — ATF4-mAPPLE reporter activation (HEK-293T ATF4-mAPPLE, HRI CRISPRi knockdown; flow cytometry; 10 µM, 16 h): inhibited
CCCC1=C(C(=O)OCC)C(c2ccc(Cl)cc2C)C2=C(CC(c3ccc(Cl)c(OC)c3)OC2=O)N1 (stereo not drawn) — EC50 (J774.A1; cytotoxicity): > 20 µM
C=C[C@@]1(C)CC(=O)[C@]2(O)[C@@]3(C)[C@@H](O)CCC(C)(C)[C@@H]3[C@H](O)[C@H](OC(C)=O)[C@@]2(C)O1 — Z score (MDA-MB-231 BAX/BAK siRNA knockdown; cell viability, CellTiter-Glo; direction not given): 0.737
CCn1cc(-c2cc(Cn3ccoc3=N)cc3c2CCN([C@@H](C)c2cc(OC)ccn2)C3=O)c(C(F)(F)F)n1 — EC50 (KP3; cell growth; 120 h): > 30 µM
C=Cc1c2[n-]c(c1C)/C=c1\[n-]/c(c(C)c1C=C)=C\c1[n-]c(c(CCC(=O)O)c1C)/C=c1\[n-]c(c(C)c1CCC(=O)O)=C2.[Sn+4] — fold change (SH-SY5Y; RNA-seq, item: RYR3 mRNA; 5 µM, 5 h; relative to: untreated cells): 1.68
COc1ccc(NC(=S)N/N=C/c2cccc3cc4ccccc4nc23)cc1 — cells in S phase (HeLa; PI flow cytometry; IC50, 48 h, with: N-acetylcysteine): 30.9%
Cn1cc(-c2ccc(-c3cncc(Cl)c3N3CCC4(CCNC4=O)CC3)cc2)cn1 — log2 fold change (COLO 205; gene expression, microarray, item: BAMBI mRNA; concentration not given, 2 h; relative to: untreated cells): 2.51
CC(C)=CCNc1ncnc2c1ncn2[C@@H]1O[C@H](CO)[C@@H](O)[C@H]1O — AP-TGFα release (mock-transfected cells; TGFα shedding, agonist; 10 nM; relative to: unstimulated vehicle control): 0.06% and 0.32% and -0.16%
CCCCC[C@H](O)/C=C/[C@H]1C(=O)C[C@H](O)[C@@H]1C/C=C\CCCC(=O)O — HTRF cAMP signal (HEK293-A2AR cells, SLCO2A1 knockout; HTRF cAMP; 100 pM): 318 a.u. and 310 a.u. and 313 a.u.
CC(C)NCC(O)c1ccc(O)c(O)c1 (stereo not drawn) — sarcomere length (mouse ventricular cardiomyocytes; dose not given, 0.323 s): 1.8 µm
O=C1NCN(c2ccccc2)C12CCN(CCCC(c1ccc(F)cc1)c1ccc(F)cc1)CC2 — viability (MDA-MB-231 BAX/BAK siRNA knockdown; CellTiter-Glo; concentration not given; relative to: normalised luminescence): 27.4% and 15.6%
Cc1cc(Nc2ncc(Cl)c(Nc3ccccc3S(=O)(=O)C(C)C)n2)c(OC(C)C)cc1C1CCNCC1 — log2 fold change (CLB-BAR; phosphoproteomics LC-MS/MS, item: RPS6 phosphorylation; 200 nM, 60 min; relative to: untreated): -4.03
CCc1ccc(NC(=O)Nc2c[nH]c3ccccc23)cc1 — phospho-TBK1/TBK1 ratio (THP1-Dual; TBK1 phosphorylation, inhibitor, Western blot densitometry; 20 µM, with: poly(I:C)): 0.972 and 1.32 and 0.936
Nc1ncnc2c1ncn2[C@@H]1O[C@H](COP(=O)(O)O)[C@@H](O)[C@H]1O — Z score (MDA-MB-231 BAX/BAK siRNA knockdown; cell viability, CellTiter-Glo; direction not given): 1.49
Nc1cccc2c1C(=O)N(C1CCC(=O)NC1=O)C2=O (stereo not drawn) — viability (MM1.S; XTT; 0.2 µM; relative to: untreated): 69%
COc1ccc(C(=O)COc2ccc(N3C(=O)[C@@H]4[C@@H]5C=C[C@@H]([C@H]6C[C@@H]56)[C@@H]4C3=O)cc2)cc1 — d6-EPC from d6-EPL production (Mut6; concentration not given, 24 h, with: 1 µM d6-S-EPL): no effect
Cl.Cl.c1cc(N2CCCCC2)ccc1Nc1cc2ncc(OCC3CCNCC3)nc2cc1-c1ccc(N2CCCCC2)cc1 — mRNA level (MOLM-13; RT-qPCR, item: Myc and Meis1; 0.3 and 1 µM, 3 days): decreased
Cc1nn(-c2nc3c(F)cc(F)cc3s2)c(O)c1C(c1cccc(C(F)(F)F)c1)c1c(C)nn(-c2nc3c(F)cc(F)cc3s2)c1O — inhibition (THP1-Dual; IFN luciferase reporter; 40 µM, with: HT-DNA): 101%
CCCN1CCN(c2ccc3[nH]c(-c4ccc5[nH]c(-c6cc(OC)c(OC)c(OC)c6)nc5c4)nc3c2)CC1 — growth percent (MDA-MB-435; SRB; 10 µM, 48 h): 55.1%
O=C(C=Cc1cc(C(=O)c2ccc(OC3CCCC3)cc2O)ccc1OCc1ccc2c(O)noc2c1)NCCOCCOCCOCCOCCOCCOCCOCCNc1cccc2c1C(=O)N(C1CCC(=O)NC1=O)C2=O (stereo not drawn) — mRNA level (FaDu cells; RT-qPCR, item: FOSL1 target genes SNAI2, BMI1; concentration not given): inhibited
CCn1cc(-c2cc(Cn3ccnc3)cc3c2CCN([C@H](c2cc(OC)ccn2)C2CC2)C3=O)c(C(F)(F)F)n1 — EC50 (MDA-MB-175-VII; cell growth, inhibitor; 120 h): 18.4 µM
C=CC(=O)N1CCC([C@@H]2CCNc3c(C(N)=O)c(-c4ccc(Oc5ccccc5)cc4)nn32)CC1 — maximum inhibition (TMD8; calcium flux, FLIPR; 2 h preincubation, with: anti-IgM): 57.6%
CC(C)C[C@@H](C=O)NC(=O)[C@H](CC(C)C)NC(=O)[C@H](CC(C)C)NC(=O)OCc1ccccc1 — EC50 (BRD4-HiBiT cells; BRD4 degradation rescue, inhibitor; 4 h, with: dBET6 500 nM): 0.393 µM
CC/C(=N\NC(=O)NCc1cccc(O)c1)c1ccc(O)c(C)c1O — log ratio (SK-OV-3; gene expression, microarray, item: MMP13; 10 µM, 24 h; relative to: DMSO): -4.98
CCCCN1C[C@H](O)[C@@H](O)[C@@H](O)[C@H]1CO — IC50 (sample B patient fibroblasts; Gb3 level lowering, LC-MS/MS, item: Gb3 d18:1/22:0; 216 h): 10.7 µM
CCOC(=O)C1=C(C)NC2=C(C(=O)OC(c3ccc(Cl)c(OC)c3)C2)C1c1ccccc1Cl (mixture of isomers) — EC50 (J774.A1; cytotoxicity): > 20 µM
Cn1cc(Nc2nccc(-c3ccc4c(c3)CN(C3COC3)CC[C@H]4NC(=O)c3cn(C(C)(C)C)nn3)n2)cn1 — number of upregulated genes (human B cells; 100 nM, 64 h, non-stimulation-regulated genes, with: anti-IgM): 574
CCCC1=C(C(=O)OCC)C(c2ccc(Cl)cc2C)C2=C(CC(c3cc(OC)ccc3OC)CC2=O)N1 (mixture of isomers) — EC50 (J774.A1; cytotoxicity): > 20 µM
O=C(Nc1cc(OCCN2CCCC2)c2ccccc2n1)c1cc(Cl)cc(C(=O)Nc2cc(OCCN3CCCC3)c3ccccc3n2)n1 — selectivity ratio (HT-1080; cell viability, CellTiter-Glo; 72 h; relative to: IC50 HT-1080 over WI-38): 4
COc1cnc2cccc(N3CCc4c(cc(Cn5ccnc5C)cc4-c4cn(C)nc4C(F)(F)F)C3=O)c2c1 — EC50 (OVK18; cell growth, inhibitor; 120 h): 10.5 µM
COc1cc(/C=C/C(=O)N2CCC=CC2=O)cc(OC)c1OC — mRNA level (MDA-MB-468; qRT-PCR, item: NDUFS4; 30 µM, 6 h; relative to: time zero): 85.8 ± 5.4%
C[C@H]1[C@@H](O)O[C@@H]2O[C@@]3(C)CC[C@H]4[C@H](C)CC[C@@H]1[C@@]24OO3 — late apoptotic cells (THP-1; annexin V/PI flow cytometry, item: annexin V+/PI+; 1.6 µM, 24 h): 1.6%
CCOC(=O)C1=C(C)NC2=C(C(=O)OC(c3cccc(OC)c3)C2)C1c1ccccc1Cl (stereo not drawn) — EC50 (J774.A1; cytotoxicity): > 20 µM
O=C(/C=C/C=C/C=C/C1CCCCC1)NC1=C[C@@](O)(/C=C/C=C/C=C/C(=O)NC2=C(O)CCC2=O)[C@@H]2O[C@@H]2C1=O — GI50 (MKN-7; cell growth, CellTiter-Glo; 78 h): 13.8 µM
CC(=O)Nc1cc(Oc2ccc3c(c2)CCN3C(=O)Nc2ccc(CN3CCN(C)CC3)c(C(F)(F)F)c2)ncn1 — cell proliferation (MHHCALL4 B-ALL cells; CellTiter-Glo; concentration not given, 3 d): inhibited
C[C@@H](O)[C@H](NC(=O)Nc1ncnc2c1ncn2[C@@H]1O[C@H](CO)[C@@H](O)[C@H]1O)C(=O)O — AP-TGFα release (mock-transfected cells; TGFα shedding, agonist; 1 nM; relative to: unstimulated vehicle control): 0%
C[C@H](Nc1ccc2c(c1)OCCn1cc(N3C(=O)OC[C@H]3C(F)F)nc1-2)C(N)=O — Hill coefficient (AGS; CellTiter-Glo; 120 h): 1.14
Cc1nn(-c2nc3c(F)cc(F)cc3s2)c(O)c1C(c1ccccc1C(F)(F)F)c1c(C)nn(-c2nc3c(F)cc(F)cc3s2)c1O — inhibition (THP1-Dual; IFN luciferase reporter; 2.5 µM, with: HT-DNA): -4.66% and -2.19% and -11.3% and -12.7% and -5.13%
N#C/C(=C\c1c[nH]nc1-c1ccc2ccccc2c1)C(=O)O — mRNA level (LX-2; qPCR, item: ACTA2; 10 µM, hepatic stellate cell activation, with: TGFβ; relative to: untreated): decreased
C=CC(=O)N1CCC[C@@H](c2ccc(C(N)=O)c3[nH]ccc23)C1 — maximum inhibition (TMD8; calcium flux, FLIPR; 1 h preincubation, with: anti-IgM): 24.8%
COc1cc(N2CCC(N3CCN(C)CC3)CC2)ccc1Nc1ncc(Cl)c(Nc2ccccc2P(C)(C)=O)n1 — Emax (Aska-SS (ALK exon 2-17 deletion); cell viability): 80%
Cc1cccc(-c2[nH]c(CNc3ccccc3F)nc2-c2ccc3ncnn3c2)n1 — viability (bone marrow CD138+ myeloma cells; XTT; 0.6 µM, mean of three patients): 83%
CSc1nc(-c2ccc(Cl)cc2)c2c(NC(=O)c3ccccc3)nnc-2[nH]1 — cell growth (MDA-MB-435; SRB; 10 µM, NCI60 single-dose screen; relative to: untreated): 103%
CC(=O)c1nn(-c2ccc(Cl)cc2)/c(=N/N=C(\C)c2ccc(NC(=O)c3ccc(C)cc3)cc2)s1 — viability (HepG2; 10 µM): 2.54%
NS(=O)(=O)OC[C@H]1C[C@@H](Nc2ccnc3cc(-c4cccc(SC(F)(F)F)c4)nn23)[C@H](O)[C@@H]1O — EC50 (BRD4-HiBiT cells; BRD4 degradation rescue, inhibitor; 24 h, with: dBET6 500 nM): 0.0504 µM
CCCCCCOC(=O)[C@]1(O)C[C@@H]2O[C@@]1(C)n1c3ccccc3c3c4c(c5c6ccccc6n2c5c31)C(=O)NC4 — relative cell number (SK-OV-3; ATP; 0.01 µM, 4 days, 3D U-bottom low-attachment; relative to: untreated): 108%
Cc1cnc(NC2CCOCC2)nc1-n1cnc(C(=O)NC(CN)c2cc(F)cc(Cl)c2)c1 (stereo not drawn) — S phase cells (MINO; flow cytometry; 1 µM, 24 h): 7.6%
CC(C)C[C@H](NC(=O)CNC(=O)c1cc(Cl)ccc1Cl)B(O)O — EC50 (BRD4-HiBiT cells; BRD4 degradation rescue, inhibitor; 24 h, 50% degradation rescued, with: dBET6 500 nM): 0.0373 µM
O=P(O)(O)C(O)(Cn1ccnc1)P(=O)(O)O — viability (hFOB 1.19; AlamarBlue; 7.5 µM, 72 h; relative to: control): 100 ± 1%
COC[C@H](NC(=O)c1cnc(C)s1)C(=O)N[C@@H](COC)C(=O)N[C@@H](Cc1ccccc1)C(=O)[C@@]1(C)CO1 — EC50 (BRD4-HiBiT cells; BRD4 degradation rescue, inhibitor; 2 h, with: dBET6 500 nM): 9.46 µM
CCCC1=C(C(=O)OCC)C(c2ccc(Cl)cc2C)C2=C(CC(c3ccc(Cl)c(OC)c3)CC2=O)N1 (stereo not drawn) — EC50 (J774.A1; cytotoxicity): > 20 µM

A few entries again:
CC(C)C[C@H](NC(=O)CNC(=O)c1cc(Cl)ccc1Cl)B(O)O — EC50 (BRD4-HiBiT cells; BRD4 degradation rescue, inhibitor; 24 h, 50% degradation rescued, with: dBET6 500 nM): 0.0373 µM
COc1ccc(NC(=S)N/N=C/c2cccc3cc4ccccc4nc23)cc1 — cells in S phase (HeLa; PI flow cytometry; IC50, 48 h, with: N-acetylcysteine): 30.9%
CC(C)=CCNc1ncnc2c1ncn2[C@@H]1O[C@H](CO)[C@@H](O)[C@H]1O — AP-TGFα release (mock-transfected cells; TGFα shedding, agonist; 10 nM; relative to: unstimulated vehicle control): 0.06% and 0.32% and -0.16%
CC(=O)c1nn(-c2ccc(Cl)cc2)/c(=N/N=C(\C)c2ccc(NC(=O)c3ccc(C)cc3)cc2)s1 — viability (HepG2; 10 µM): 2.54%
COc1cnc2cccc(N3CCc4c(cc(Cn5ccnc5C)cc4-c4cn(C)nc4C(F)(F)F)C3=O)c2c1 — EC50 (OVK18; cell growth, inhibitor; 120 h): 10.5 µM
